Published values pooled from the literature.
Each line is one published result; not all experiments were run side by side. ± marks the error that the study gave.
Fibroin-modulator-binding protein-1: Fibroin-modulator-binding protein-1 99-193 (Bombyx mori, UniProt Q5FBS0)
SPT15/TOA1/TOA2/SUA7 1-240; 1-286; 1-122; 1-345: SPT15/TOA1/TOA2/SUA7 1-240; 1-286; 1-122; 1-345 (Saccharomyces cerevisiae)
Chain of UniProt P27695 (whole entry, unmodified, looked up): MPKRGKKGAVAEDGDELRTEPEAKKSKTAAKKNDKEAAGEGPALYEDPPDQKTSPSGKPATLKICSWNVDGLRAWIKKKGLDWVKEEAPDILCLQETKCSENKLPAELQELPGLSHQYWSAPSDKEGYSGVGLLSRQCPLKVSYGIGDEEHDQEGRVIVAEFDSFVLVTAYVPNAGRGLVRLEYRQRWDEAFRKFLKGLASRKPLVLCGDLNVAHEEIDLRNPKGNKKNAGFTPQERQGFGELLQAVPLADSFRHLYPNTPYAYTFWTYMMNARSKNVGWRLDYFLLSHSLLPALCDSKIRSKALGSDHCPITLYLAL

GGGAGAACUUCGACCAGAAGUUCCUGCCAAUUGAGCACAUUACGCAAAAAAAUUCCCUGCCUAUGUGCGCAUACAUGGAUCCUC (ssRNA; 2'-fluoro pyrimidines)  relative binding (integrin alphaV/beta3 31-992/27-718 (Homo sapiens); SPR; RNA; added: MnCl2 1 mM; higher = more binding): 29.5 RU
GAGCGAGCGAGC (dsDNA)  Kd (Fibroin-modulator-binding protein-1; ITC; double-stranded DNA, one strand shown): 10600 nM
GGGAGAACUUCGACCAGAAGUGCCAUAAGCAUACGCAACAAACUCGCCUGCCUUGCUUAGUAUGUGCGCAUACAUGGAUCCUC (ssRNA; 2'-fluoro pyrimidines)  relative binding (integrin alphaV/beta3 31-992/27-718 (Homo sapiens); SPR; RNA; added: MnCl2 1 mM; higher = more binding): 55.5 RU
TCCTGAAGGGGCGACTATAAAAGGTCCTATCGTCGTCAAGTCAATCGGTCC (dsDNA; 5'-amino-C6 primer)  Kd (SPT15/TOA1/TOA2/SUA7 1-240; 1-286; 1-122; 1-345; array; double-stranded DNA, one strand shown; TBP:TFIIA:TFIIB ternary complex): 3.08 ± 1 nM
GTCAGTCAGTCA (dsDNA)  Kd (Fibroin-modulator-binding protein-1; ITC; double-stranded DNA, one strand shown): 5780 ± 628 nM
CTCAGGAATTCCTATAAAGTAATGTGGAGCTCAGTTCAAGTCAATCGGTCC (dsDNA; 5'-amino-C6 primer)  Kd (SPT15/TOA1/TOA2/SUA7 1-240; 1-286; 1-122; 1-345; array; double-stranded DNA, one strand shown; TBP:TFIIA:TFIIB ternary complex): 1.55 ± 0.12 nM
QSARYRDTEL  binding intensity (human SCRIB PDZ3-4 tandem (MBP fusion); automated holdup; peptide, crude extract; concentration not given, corrected by standard peak, unit not given; relative to: biotin control resin, higher = stronger binding): 0.684
11-deoxycorticosterone  rate constant (stopped-flow global kinetic fitting; 4-state closed model (best), 40-fold adrenodoxin excess, added: substrate binding k-2): 43.9 ± 1.72 min⁻¹
Peginesatide  mRNA level (UT7/EPO; RT-qPCR, item: MYC; concentration not given, 90 min, normalized to HPRT1; relative to: vehicle): 2.9 fold
GGGAGAACUUCGACCAGAAGACAAAUAUGCAACAUGUUACGCCAAAAGUUCCCCGGCCUAUAUGUGCGCAUACAUGGAUCCUC (ssRNA; 2'-fluoro pyrimidines)  relative binding (integrin alphaV/beta3 31-992/27-718 (Homo sapiens); SPR; RNA; added: MnCl2 1 mM; higher = more binding): 62.6 RU
colistin  MIC (Pseudomonas aeruginosa; clinical isolate RKI 470/12): ≤ 1 µg/mL
GCTGGCTGGCTG (dsDNA)  Kd (Fibroin-modulator-binding protein-1; ITC; double-stranded DNA, one strand shown): 5460 ± 561 nM
DNA 1 CACTGGCCGTCTTACGGTCGCTCTGCTCGACG / DNA 2 CGACCGTAAGACGGCCAGTG (dsDNA; 20 bp, 3' 12 nt overhang)  Kd (RECQL 63-592 K514A (Bos taurus, UniProt A0JN36); fluorescence anisotropy; double-stranded DNA; added: Mg2+ 3 mM): 19 ± 2.6 nM
PKRSFIESNV  normalised SPR binding response (human MAGI1-2/6 PDZ construct (MBP fusion); surface plasmon resonance; peptide; concentration not given; higher = stronger binding): 10.8 normalised RU
AGATAGATAGAT (dsDNA)  Kd (Fibroin-modulator-binding protein-1; ITC; double-stranded DNA, one strand shown): 864 ± 88.6 nM
TCCTGAAGGGGCGCCCTAGCTTGGTCCTATCGTCGTCAAGTCAATCGGTCC (dsDNA; 5'-amino-C6 primer)  Kd (SPT15/TOA1/TOA2/SUA7 1-240; 1-286; 1-122; 1-345; array; double-stranded DNA, one strand shown; TBP:TFIIA:TFIIB ternary complex): 1.71 ± 0.31 nM
GGGAGAACUUCGACCAGAAGGACUACCAUCGAACGUACAUUACGCUACUCUCUACCAGCUAUGUGCGCAUACAUGGAUCCUC (ssRNA; 2'-fluoro pyrimidines)  relative binding (integrin alphaV/beta3 31-992/27-718 (Homo sapiens); SPR; RNA; added: MnCl2 1 mM; higher = more binding): -4.2 RU
DNA 1 TGGGTGGGTAGGGTGGGTAGGGGAGGAT / DNA 2 ATCCTCCCCTA (DNA; intramolecular parallel G4, 5' overhang, 11-bp duplex)  Kd (REV1 330-833 M407L (Homo sapiens, UniProt Q9UBZ9); FP; folded DNA; KCl 100 mM): 5.3 ± 1.8 nM
GGGAGAACUUCGACCAGAAGAUUGUGACCCGAUUUGUCACUCUUUCUAUGUACGCGGAAUUAUGUGCGCAUACAUGGAUCCUC (ssRNA; 2'-fluoro pyrimidines)  relative binding (integrin alphaV/beta3 31-992/27-718 (Homo sapiens); SPR; RNA; added: MnCl2 1 mM; higher = more binding): -0.1 RU
ATGAATGAATGA (dsDNA)  Kd (Fibroin-modulator-binding protein-1; ITC; double-stranded DNA, one strand shown): 1520 ± 149 nM
RNA 1 CCGGGCGGGCGGGAGGGAC / RNA 2 GGCCUCCGGCCCCCCCG (dsRNA (Homo sapiens); duplex with bulges)  K1/2 (APE1 34-318 del1-33 (Homo sapiens, UniProt P27695); fluorescence titration; double-stranded RNA; without Mg2+, added: none): 780 ± 110 nM

Repeated from above:
GGGAGAACUUCGACCAGAAGGACUACCAUCGAACGUACAUUACGCUACUCUCUACCAGCUAUGUGCGCAUACAUGGAUCCUC (ssRNA; 2'-fluoro pyrimidines)  relative binding (integrin alphaV/beta3 31-992/27-718 (Homo sapiens); SPR; RNA; added: MnCl2 1 mM; higher = more binding): -4.2 RU
DNA 1 TGGGTGGGTAGGGTGGGTAGGGGAGGAT / DNA 2 ATCCTCCCCTA (DNA; intramolecular parallel G4, 5' overhang, 11-bp duplex)  Kd (REV1 330-833 M407L (Homo sapiens, UniProt Q9UBZ9); FP; folded DNA; KCl 100 mM): 5.3 ± 1.8 nM
